Measured values collected from several papers.
Lines come from different studies, so protocols differ. ± marks the error that the study gave.

SMILES | test | system | conditions | quantity | value
NC(=O)CC[C@@H]1NC(=O)[C@H](Cc2ccccc2)NC(=O)[C@H](Cc2ccc(O)cc2)NC(=O)CCSSC[C@@H](C(=O)N2CCC[C@H]2C(=O)N[C@H](CCCN=C(N)N)C(=O)NCC(N)=O)NC(=O)[C@H](CC(N)=O)NC1=O |  | mild haemophilia A patients and carriers, plasma | intravenous infusion over 30 min, 0.3 µg/kg, mean, noncompartmental | clearance | 130 mL/min
Cn1cncc1-c1c(F)cncc1NC(=O)c1c(N)nn2cc(F)cnc12 | population PK model | patients with solid tumours, plasma | oral, dose not given | clearance change rate KCL | 0.0878 h⁻¹
O=C(O)c1cc(O)c(O)c(O)c1 |  | chicken Ross broiler, male | intravenous, 0.49 mg/kg | clearance | 22.3 ± 7.5 mL/min/kg
C[C@H]1Oc2cc(cnc2N)-c2c(nn(C)c2C#N)CN(C)C(=O)c2ccc(F)cc21 | population PK | patients with mild hepatic impairment (NCI sample B), plasma | oral, 100 mg, median, single dose | clearance | 132 mL/min
CN[C@H]1C(=O)N[C@@H]2Cc3ccc(cc3)Oc3cc4cc(c3O[C@@H]3O[C@H](C(=O)O)[C@@H](O)[C@H](O)[C@H]3NC(=O)CCCCCCCCC(C)C)Oc3ccc(cc3Cl)[C@@H](O)[C@@H]3NC(=O)[C@H](NC(=O)[C@@H]4NC(=O)[C@@H](NC2=O)c2cc(cc(O)c2Cl)Oc2cc1ccc2O)c1ccc(O)c(c1)-c1c(O[C@H]2O[C@H](CO)[C@@H](O)[C@H](O)[C@@H]2O)cc(O)cc1[C@@H](C(=O)NCCCN(C)C)NC3=O | population PK model | paediatric patients | reference weight 70 kg | clearance | 0.963 mL/min
CC[C@H](C)CCCCC(=O)N[C@@H](CCN)C(=O)N[C@H](C(=O)N[C@@H](CCN)C(=O)N[C@H]1CCNC(=O)[C@H]([C@@H](C)O)NC(=O)[C@H](CCN)NC(=O)[C@H](CCN)NC(=O)[C@H](CC(C)C)NC(=O)[C@@H](Cc2ccccc2)NC(=O)[C@H](CCN)NC1=O)[C@@H](C)O |  | ESKD on long-term intermittent haemodialysis | intravenous infusion, 0.75 mg/kg single dose over 1 h, arithmetic mean | clearance | 25 mL/min
CC(C)C[C@H](NC(=O)[C@H](CCc1ccccc1)NC(=O)CN1CCOCC1)C(=O)N[C@@H](Cc1ccccc1)C(=O)N[C@@H](CC(C)C)C(=O)[C@@]1(C)CO1 | population PK, two-compartment model | adult relapsed/refractory DLBCL patients, plasma | intravenous infusion, dose not given, added: R-ICE | clearance | 2220 mL/min
CC(C)c1nc(N(C)S(C)(=O)=O)nc(-c2ccc(F)cc2)c1/C=C/[C@@H](O)C[C@@H](O)CC(=O)O | population pharmacokinetic model | people living with HIV | oral, bootstrap median | clearance | 2030 mL/min
C[C@@H]1CCC[C@H](n2cnc(-c3cc(Cl)ccc3-n3cc(Cl)nn3)cc2=O)c2cc(ccn2)-c2c(cnn2C(F)F)NC1=O |  | rabbit, male | intravenous, 0.8 mg/kg | clearance | 6.7 ± 0.8 mL/min/kg

Some of these lines once more:
SMILES | test | system | conditions | quantity | value
O=C(O)c1cc(O)c(O)c(O)c1 |  | chicken Ross broiler, male | intravenous, 0.49 mg/kg | clearance | 22.3 ± 7.5 mL/min/kg
